Results from different studies.
Parts stem from different laboratories: compare values within a part only. Substitutions count along the parent as printed.

Block 1
Target: TAR DNA-binding protein 43, full length, His tag (TARDBP, Homo sapiens, UniProt Q13148, residues 1-414)
Technique: RNA Bind-n-Seq
Form: RNA
Medium: in vitro
Tested at: 20 nM
Notes: 6-mer, flanks averaged, single round
Added: 150 mM KCl
Reference: input library
Reading: higher = stronger binding
Oligonucleotide | 6-mer enrichment (R)
GAGCCU | 0.829
CCCAAU | 0.653
GCGUUG | 1.28
CCCCCU | 0.69
CAUACC | 0.585
UCCUCA | 0.559
AUUGAC | 0.619
CCCACU | 0.628
UACCUC | 0.561
GGAUGG | 3.77
CACAUA | 0.627
AAAACG | 0.623
UACACU | 0.579
CCAUUC | 0.571
UAUAGA | 0.653
GAAUGU | 1.14

Block 2
Target: Histone acetyltransferase KAT6A, winged helix 2, GST fusion (KAT6A, Homo sapiens, UniProt Q92794, residues 85-181)
Technique: protein binding microarray
Form: double-stranded DNA, one strand shown
Medium: in vitro
Tested at: not given
Notes: 8-mer, flanks averaged, mean of 2 arrays, mostly near background
Reference: not given
Reading: higher = stronger binding
Target sequence (chain): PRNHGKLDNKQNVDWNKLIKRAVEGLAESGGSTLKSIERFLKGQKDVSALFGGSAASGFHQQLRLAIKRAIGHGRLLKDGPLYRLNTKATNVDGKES
Oligonucleotide | E-score
CCTACCAG | -0.12
CATGAAAG | 0.0252
GGAGCTCA | -0.0451
AGCGGAAG | 0.0827
CACACGTG | -0.25
ATCGACCG | 0.00402
CTTGGCGA | 0.0436
CAGCTCCG | 0.152
AACTTGAC | 0.00543
ACGCGGGG | 0.181
CTTGCGAC | 0.0247
CTTCCCGC | 0.132
AACCTCAG | -0.0795
GTCGGCAA | 0.15
ATATACCC | -0.0751
CGTTATAG | -0.14
AAGTCGGT | -0.0571
CCCACGCG | -0.014
CCAGATCA | 0.175
CAGGCAGC | 0.0891
CATGCTAC | -0.00564
ATGGCCAG | -0.00757
AGCATCCG | 0.138
CCATGCTA | 0.0307
AATCGTAC | -0.19

Block 3
Target: Prothrombin, mature alpha-thrombin (F2, Homo sapiens, UniProt P00734)
Technique: aptamer microarray, sandwich
Form: DNA with 2'F-ANA
Medium: in vitro
Tested at: 200 nM
Notes: whole 15-mer aptamer, many near background
Added: Cy3 exosite-II aptamer, 400 nM
Reading: higher = stronger binding
Oligonucleotide: GGTTGGTGTGGTTGG
Modification | mean fluorescence intensity
2'F-ANA at 2 3 7 9 15 | 788 a.u.
2'F-ANA at 1 5 7 8 10 11 12 13 14 | 47.3 a.u.
2'F-ANA at 1 5 6 10 11 14 | 48.4 a.u.
2'F-ANA at 1 2 4 6 10 11 12 14 15 | 49 a.u.
2'F-ANA at 1 3 4 7 8 | 285 a.u.
2'F-ANA at 1 5 6 7 8 9 11 12 | 104 a.u.
2'F-ANA at 3 5 7 10 11 13 15 | 80.6 a.u.
2'F-ANA at 2 3 4 8 10 11 | 234 a.u.
2'F-ANA at 8 9 10 11 | 197 a.u.
2'F-ANA at 3 4 5 6 8 10 12 13 15 | 61.9 a.u.
2'F-ANA at 2 4 5 6 7 8 13 14 15 | 48.1 a.u.
2'F-ANA at 2 4 9 13 14 15 | 114 a.u.
2'F-ANA at 1 5 7 8 10 13 14 | 59 a.u.
2'F-ANA at 2 4 6 8 9 11 12 15 | 404 a.u.
2'F-ANA at 1 4 5 7 9 10 12 13 15 | 66.5 a.u.
2'F-ANA at 2 4 7 9 13 14 | 140 a.u.
2'F-ANA at 1 3 4 5 6 7 8 10 11 12 | 112 a.u.
2'F-ANA at 1 6 8 11 12 13 15 | 281 a.u.
2'F-ANA at 4 6 7 10 11 12 13 14 | 66.2 a.u.
2'F-ANA at 2 3 7 11 12 13 14 15 | 421 a.u.
2'F-ANA at 1 2 5 6 7 13 15 | 52.1 a.u.
2'F-ANA at 1 2 8 12 13 | 323 a.u.
2'F-ANA at 1 2 6 8 9 12 13 14 15 | 64.1 a.u.

Block 4
Target: RING finger protein unkempt homolog, zinc fingers 1-6, SBP tag (UNK, Homo sapiens, UniProt Q9C0B0, residues 30-357)
Sequence of UniProt Q9C0B0 (30-357, looked up): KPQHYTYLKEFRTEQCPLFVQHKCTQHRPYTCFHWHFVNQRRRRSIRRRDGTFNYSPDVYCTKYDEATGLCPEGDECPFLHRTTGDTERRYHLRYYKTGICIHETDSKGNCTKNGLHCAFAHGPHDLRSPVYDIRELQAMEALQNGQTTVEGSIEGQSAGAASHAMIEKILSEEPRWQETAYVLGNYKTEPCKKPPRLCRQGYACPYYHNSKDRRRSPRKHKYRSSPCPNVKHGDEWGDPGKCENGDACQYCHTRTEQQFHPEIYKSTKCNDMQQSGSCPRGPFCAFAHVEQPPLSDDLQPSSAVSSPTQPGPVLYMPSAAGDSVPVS
Technique: RNA Bind-n-Seq
Form: RNA
Medium: in vitro
Tested at: 100 nM
Notes: RNA with constant flanks, vertebrate orthologous sites, ends assumed
Reference: input RNA pool
Reading: higher = stronger binding
Oligonucleotide | bound/input enrichment [ratio]
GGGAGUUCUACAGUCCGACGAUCGUUGGGUCAUGACCCCUAUAGGUUAGGCCAUGAUGCUUACAGGUUAGGACAGGACCCUUAUAGGUUAGGUCAUGAUCCCUACAGACUAACUCCUGAUCCCUAUAGGAUGUCACCCAGGCCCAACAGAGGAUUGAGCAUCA | 0.462
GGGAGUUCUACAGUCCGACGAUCCGGGGUGUACCAGUGGGGCGCUGCUGGCCAUUUAGCGUUGUUUGAUUUGUGACCUUGACGUAAUAGAUAGGCUUGUGGGUUUUUUUUUUAAUUUAAAGAUAUUAAGACUUAAUUCACUAACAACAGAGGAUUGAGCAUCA | 0.973
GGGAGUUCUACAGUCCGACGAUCGUUGUGACCCAUUUAACAUUCACAAAAAACUAGCCAAAAAAAAUUUGCAUGUAAUUGACUUAGAUGAUGCCACUUUCCUGAGUGCAAAAUUUGGAAGACAGCUUGUACCUGGUUGGAAGCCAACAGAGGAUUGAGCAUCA | 1.46
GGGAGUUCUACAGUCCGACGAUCAGAUCGCCUAGGUAGGGGUGAGCAUUAACCUAGGAAGAAAUGAAAUGCUAAAAAUCAUACUAGUGCUAACUUUAGUUGGGGAAUUUAAAUAGACCGCUUUUACAUCAUUUGAAAAUGAAGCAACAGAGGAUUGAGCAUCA | 0.978
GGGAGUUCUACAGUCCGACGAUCAAGGAGCAGCAUAGACUGUUUGAGCUUUGGGGAAAUGAGCUUUUGCUUUUUGUAUUUAAAUAGGAUACUUUUAUAUGAUGGGUGCUUUUGAGUGUGAACGCAGCAGGCUCUCCAUUUCAGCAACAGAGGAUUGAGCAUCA | 1.25
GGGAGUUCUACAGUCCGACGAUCAAAUUUAUUUCAUGCCCUGGACUCCCUAUCGUACCGAUACUUUAAUAGAAUAUGCUUCUUUAGAAGAUUUCCAAAAUAGUCGCCAAACAACAACGUAUAAACUUCCAAAUCGAGUAGAUGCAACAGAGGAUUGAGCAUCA | 1.42
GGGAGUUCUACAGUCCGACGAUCUCUCUCACUUAGCUGUGUCCAAAAUUGCUAUGAGGGUUGGAAACAUUGAUUAGUUUCAUGUAGAACUACACUGGCAGGUGCUCAAUUACCAUCAUAGCAAUGUCAAAUACCAUCACAGUACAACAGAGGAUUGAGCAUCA | 1.47
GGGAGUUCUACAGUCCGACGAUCCUUUUUUUUUUUUGUUUUUUUUUGUUUUUUGGUUUUUGGGUUUUUUUUUCGGUUUUUUGGUAGUUGUUGUUACCCACGCCAUUUUACGUCUCCUUCACUGAAGGGCUAGAGUUUUAACUUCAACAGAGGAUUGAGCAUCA | 2.79
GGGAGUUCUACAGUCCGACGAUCACUAGUAUCCUACCAGCCUAUCAACCUCUCUGUCUGUGCACAGCUUCAGAUGUUACCGUCUAGCUAGAUUUUUAUUUAAAAUAUGAAAAACUGCUUUUCCCAAGACGUUUUUUAAAGACACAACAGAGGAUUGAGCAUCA | 1.89
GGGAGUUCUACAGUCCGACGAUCCAGAGCAGCAUGGGCUGUUGAGCUGUGGAAAACUGAGCUUUGCAUUUUUUUAUAUUUAAAUAGGAUACUUUUAUAUGAUGGGUGCUUUGAGUGUGAAUGCAGCAGGCUUUCCUUUUCAGACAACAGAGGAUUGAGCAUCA | 1.52
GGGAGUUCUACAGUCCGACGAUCAGCAGGUCAGGGAUUGAGGCCCACCUUCCCACAUAUACCAAGCAGGUACGGAAUCAACAGGAUGGGACAGCCAAGACCCUGAUGGACUCUUAACGUACUGUUAUGGGAGUGUCGACUCCUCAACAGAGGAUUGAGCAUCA | 0.261

Block 5
Target: Interferon regulatory factor 5, full length, phosphomimetic (IRF5, Homo sapiens, UniProt Q13568-2, residues 1-514, K96S/S451D/S453D/S456D/S462D)
Technique: protein-binding microarray
Form: double-stranded DNA, one strand shown
Medium: in vitro
Tested at: 250 nM
Notes: 60-bp whole probe
Added: salmon DNA 0.4 mg/ml
Reference: random background probes
Reading: higher = stronger binding
All sequences stand within: GCCTAGCAC … GTCTTGATTCGCTTGACGCTGCTG
Oligonucleotide | log fluorescence
GTAGGTTTCGGTATCGGTTAGTGCTAG | 11.5 z-score
GACGGACTGCTACTGCTCACGTGCTAG | -0.69 z-score
TCAGCTTTAGTCATTCACACTGTGCTA | 0.102 z-score
GACGGTAGCCTACTGCTGACGTGCTAG | -0.568 z-score
TTAGATCTCAGTCTCAATTAGTGCTAG | 0.364 z-score
AACATACTGATTTCCACTTTGTGCTAG | 0.674 z-score
AACGAACTGAGTATCGAGACGTGCTAG | 2.09 z-score
TCATTTTTCAAGAAACAGACTGTGCTA | 1.07 z-score
ATATATTCATATATATATGAGTGCTAG | 0.959 z-score
GCTGGGTTTTCTTGGCACAGGTGCTAG | -0.431 z-score
TCAATATTCACTATAGTACTGTGCTAG | 0.957 z-score
CACGGTATCGACTATCGGGACGTGCTA | 3.88 z-score
GACCGTTTCGGTTCCGGGACGTGCTAG | 9.56 z-score
GTGTTTGTCCCTATTTAAGAGTGCTAG | 0.375 z-score
TTAGGTTTACTTATCCTTTAGTGCTAG | -0.0686 z-score
GTGACAGTTTTATTTTAGTTGGTGCTA | 0.883 z-score
GACGGTTTCTGTATCGGGACGTGCTAG | 4.51 z-score
GACGGTTCCGGTTGCGGGACGTGCTAG | 0.825 z-score
TTGGAACTGAGTCTCGATTAGTGCTAG | 0.446 z-score
GACGGTTTCGGGACTGTGGACGTGCTA | 4.84 z-score
GACGATATCGGGTTTCGAGAGGTGCTA | 3.74 z-score
TTAGGACTGGACGATCGGTTAGTGCTA | 0.0699 z-score
GACGGACCGGACACTGGGGACGTGCTA | -0.563 z-score
GACGCTATCGGTTTCGGGACGTGCTAG | 9.09 z-score
TCATGTCTGGGCTTTTTCACTGTGCTA | 0.148 z-score

Block 6
Target: Sal-like protein 4, full length isoform A (SALL4, Homo sapiens, UniProt Q9UJQ4, residues 1-1053)
Sequence of UniProt Q9UJQ4 (whole entry, looked up): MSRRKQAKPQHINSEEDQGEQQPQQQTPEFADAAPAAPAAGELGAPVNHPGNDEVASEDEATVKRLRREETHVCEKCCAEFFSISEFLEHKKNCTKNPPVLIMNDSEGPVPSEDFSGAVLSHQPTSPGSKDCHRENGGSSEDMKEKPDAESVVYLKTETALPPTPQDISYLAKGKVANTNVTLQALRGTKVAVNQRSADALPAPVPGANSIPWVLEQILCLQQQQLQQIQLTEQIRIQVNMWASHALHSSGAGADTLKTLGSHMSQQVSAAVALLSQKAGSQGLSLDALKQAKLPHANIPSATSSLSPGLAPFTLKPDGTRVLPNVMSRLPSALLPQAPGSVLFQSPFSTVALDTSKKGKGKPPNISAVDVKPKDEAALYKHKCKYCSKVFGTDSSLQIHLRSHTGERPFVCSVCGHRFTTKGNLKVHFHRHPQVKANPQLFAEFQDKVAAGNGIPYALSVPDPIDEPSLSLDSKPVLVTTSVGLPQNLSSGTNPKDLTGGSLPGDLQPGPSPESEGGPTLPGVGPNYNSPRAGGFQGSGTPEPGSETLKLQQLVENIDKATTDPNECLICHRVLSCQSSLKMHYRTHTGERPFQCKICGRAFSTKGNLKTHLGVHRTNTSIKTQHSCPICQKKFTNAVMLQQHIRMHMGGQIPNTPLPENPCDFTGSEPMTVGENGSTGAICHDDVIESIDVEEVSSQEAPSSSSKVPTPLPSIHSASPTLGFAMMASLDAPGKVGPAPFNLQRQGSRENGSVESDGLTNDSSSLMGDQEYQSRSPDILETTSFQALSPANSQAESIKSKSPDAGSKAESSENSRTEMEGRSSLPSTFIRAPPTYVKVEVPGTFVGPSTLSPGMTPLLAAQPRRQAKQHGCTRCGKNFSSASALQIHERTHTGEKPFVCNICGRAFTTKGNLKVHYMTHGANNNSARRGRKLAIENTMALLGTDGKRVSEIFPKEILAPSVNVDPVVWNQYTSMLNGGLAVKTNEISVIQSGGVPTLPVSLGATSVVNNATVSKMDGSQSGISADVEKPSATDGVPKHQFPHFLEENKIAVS
Technique: universal PBM
Form: double-stranded DNA, one strand shown
Medium: in vitro
Tested at: 600 nM
Notes: 8-mer, flanks averaged, mean of replicates
Reading: higher = stronger binding
Oligonucleotide | E-score
CGCCGTGA | -0.14
AGGGAGAC | -0.234
AGGGTGCA | -0.19
GACTCCCA | -0.167
GGACAACA | -0.0659
GTCACAAA | 0.0612
AGTAAGAC | -0.0861
TTACATAA | 0.359
CGGAAAAC | -0.0253
GATAAATC | 0.184
TCGGCACA | -0.108
CATCTGTA | 0.164
ACGCTACC | -0.165
GGCTCACA | -0.219
ACCCCTAC | -0.216
AGGGTACA | 0.0823
CCTGAACC | -0.124
CTGTCAAA | 0.11
GGAGACGA | -0.0556
ACGTAAGA | 0.203
ATAGGAAC | 0.133

Block 7
Target: CCNA1, cyclin fold, Cln2 fusion (human)
Technique: yeast growth competition, sequencing
Medium: yeast
Notes: weak parent motif
Reference: not given
Reading: higher = stronger binding
Starting sequence: SCAPER docking peptide (human); SNARRSLNFGGST; partner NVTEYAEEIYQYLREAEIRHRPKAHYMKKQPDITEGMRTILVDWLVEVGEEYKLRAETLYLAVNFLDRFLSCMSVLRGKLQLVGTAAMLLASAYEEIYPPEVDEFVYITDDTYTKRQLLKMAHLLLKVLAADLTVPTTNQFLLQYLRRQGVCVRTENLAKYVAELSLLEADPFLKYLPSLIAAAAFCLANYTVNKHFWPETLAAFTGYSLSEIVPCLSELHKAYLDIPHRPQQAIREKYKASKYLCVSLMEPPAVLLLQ
Variant | normalised enrichment score
G10I | 0.389
N8A | 0.379
R4A | 0.494
G11Q | 0.706
G10D | 0.557
A3L | 0.31
F9K | 0.0956
G10Q | 0.281
S6Y | 0.48
S6Q | 0.72
N2K | 0.47
S12R | 0.145
F9R | 0.19
G10R | 0.519
N2H | 0.638
A3Q | 0.0891
S12L | 0.692
S12D | 0.615
R4L | -0.0701
A3P | 0.589
L7Y | 0.326
